Published values of several laboratories.
Compare with care: the assays were run in different laboratories. Numbers after ± are the reported error.

`CCCCCCCCCCCCCCCC(=O)N[C@@H](CCC(=O)NCCOCCOCCC(=O)NCCOCCOCCC(=O)NCCCC[C@H](NC(=O)[C@H](CC(=O)O)NC(=O)[C@H](CC(C)C)NC(=O)[C@H](Cc1ccc(O)cc1)NC(=O)[C@H](CCCCN)NC(=O)[C@H](CO)NC(=O)[C@H](Cc1ccc(O)cc1)NC(=O)[C@H](CC(=O)O)NC(=O)[C@H](CO)NC(=O)[C@@H](NC(=O)[C@H](Cc1ccccc1)NC(=O)[C@@H](NC(=O)CNC(=O)[C@H](CCC(N)=O)NC(=O)[C@@H](CO)NC(=O)[C@@H](N)Cc1c[nH]cn1)[C@@H](C)O)[C@@H](C)O)C(=O)N[C@@H](CCCNC(=N)N)C(=O)N[C@@H](CCCNC(=N)N)C(=O)N[C@@H](C)C(=O)N[C@@H](CCC(N)=O)C(=O)N[C@@H](CC(=O)O)C(=O)N[C@@H](Cc1ccccc1)C(=O)N[C@H](C(=O)N[C@@H](CCC(N)=O)C(=O)N[C@@H](Cc1c[nH]c2ccccc12)C(=O)N[C@@H](CC(C)C)C(=O)N[C@@H](CC(C)C)C(=O)N[C@@H](CC(N)=O)C(=O)N[C@H](C(=O)NCC(=O)NCC(=O)N1CCC[C@H]1C(=O)N[C@@H](CO)C(=O)N[C@@H](CO)C(=O)NCC(=O)N[C@@H](C)C(=O)N1CCC[C@H]1C(=O)N1CCC[C@H]1C(=O)N1CCC[C@H]1C(=O)N[C@@H](CO)C(N)=O)[C@@H](C)O)C(C)C)C(=O)O` has a serum cholesterol of 1.41 ± 0.3 mmol/L (female Sprague-Dawley rats; subcutaneous, 20 µg/kg once daily, 14 days).
The Tmax of `CC[C@H](C)[C@H](NC(=O)[C@H](CCCN)NC(=O)[C@H](CC(=O)O)NC(=O)[C@H](CC(C)C)NC(=O)C(C)(CC(C)C)NC(=O)[C@@H](NC(=O)[C@H](CO)NC(=O)[C@H](Cc1ccc(O)cc1)NC(=O)[C@H](CC(=O)O)NC(=O)[C@H](CO)NC(=O)[C@@H](NC(=O)[C@H](Cc1ccccc1)NC(=O)[C@@H](NC(=O)CNC(=O)[C@H](CCC(=O)O)NC(=O)C(C)(C)NC(=O)[C@@H](N)Cc1ccc(O)cc1)[C@@H](C)O)[C@@H](C)CC)[C@@H](C)CC)C(=O)N[C@@H](Cc1c[nH]cn1)C(=O)N[C@@H](CCC(N)=O)C(=O)NC(C)(C)C(=O)N[C@@H](CC(=O)O)C(=O)N[C@@H](Cc1ccccc1)C(=O)N[C@H](C(=O)N[C@@H](CCC(=O)O)C(=O)N[C@@H](Cc1ccc(O)cc1)C(=O)N[C@@H](CCCCNC(=O)COCCOCCNC(=O)COCCOCCNC(=O)CC[C@H](NC(=O)CCCCCCCCCCCCCCCCCCC(=O)O)C(=O)O)C(=O)N[C@@H](CC(C)C)C(=O)N[C@@H](CCC(=O)O)C(=O)NCC(=O)NCC(=O)N1CCC[C@H]1C(=O)N[C@@H](CO)C(=O)N[C@@H](CO)C(=O)NCC(=O)N[C@@H](C)C(=O)N1CCC[C@H]1C(=O)N1CCC[C@H]1C(=O)N1CCC[C@H]1C(=O)N[C@@H](CO)C(N)=O)C(C)C` (some centres unmarked) is reported as 84 h (human, plasma; subcutaneous, 25 mg, single dose, healthy volunteers).
`CC[C@H](C)[C@H](NC(=O)[C@H](CO)NC(=O)[C@H](Cc1ccc(O)cc1)NC(=O)[C@H](CC(=O)O)NC(=O)[C@H](CO)NC(=O)[C@@H](NC(=O)[C@H](Cc1ccccc1)NC(=O)[C@@H](NC(=O)CNC(=O)[C@H](CCC(=O)O)NC(=O)[C@@H](C)NC(=O)[C@@H](N)Cc1ccc(O)cc1)[C@@H](C)O)[C@@H](C)CC)C(=O)N[C@@H](C)C(=O)N[C@@H](CCSC)C(=O)N[C@@H](CC(=O)O)C(=O)N[C@@H](CCCCN)C(=O)N[C@H](C(=O)N[C@@H](Cc1c[nH]cn1)C(=O)N[C@@H](CCC(N)=O)C(=O)N[C@@H](CCC(N)=O)C(=O)N[C@@H](CC(=O)O)C(=O)N[C@@H](Cc1ccccc1)C(=O)N[C@H](C(=O)N[C@@H](CC(N)=O)C(=O)N[C@@H](Cc1c[nH]c2ccccc12)C(=O)N[C@@H](CC(C)C)C(=O)N[C@@H](CC(C)C)C(=O)N[C@@H](C)C(=O)N[C@@H](CCC(N)=O)C(=O)N[C@@H](CCCCN)C(=O)N1CCC[C@H]1C(=O)N[C@@H](CO)C(=O)N[C@@H](CO)C(=O)NCC(=O)N[C@@H](C)C(=O)N1CCC[C@H]1C(=O)N1CCC[C@H]1C(=O)N1CCC[C@H]1C(=O)N[C@@H](CO)C(N)=O)C(C)C)[C@@H](C)CC` gave a triglycerides of 130 ± 21 mg/dL (HF-STZ diabetic mouse; continuous infusion, 100 nmol/kg/day, 4 weeks).
With `Cc1oc2nc1C(=O)N[C@](C)(C(=O)O)c1nc(c(C)o1)C(=O)N[C@](C)(C(=O)O)c1nc(c(C)o1)C(=O)N[C@]2(C)C(=O)O` the selectivity index was 39.1 (SARS-CoV-2; Vero E6, NRC-03-nhCoV; relative to: CC50 over IC50).
`CC[C@H](C)[C@@H]1NC(=O)[C@@H](NC(=O)[C@H](CO)NC(=O)[C@@H](N)CCCNC(=N)N)CSSC[C@@H](C(=O)O)NC(=O)[C@H]([C@@H](C)O)NC(=O)CNC(=O)[C@@H]2CSSC[C@@H]3NC(=O)[C@H](CCC(N)=O)NC(=O)[C@H](Cc4ccccc4)NC(=O)[C@H](C)NC(=O)[C@H]([C@@H](C)O)NC(=O)[C@H](CSSC[C@H](NC(=O)[C@H](Cc4ccccc4)NC(=O)[C@H](CO)NC(=O)[C@H](CC(C)C)NC(=O)[C@H](CCCNC(=N)N)NC(=O)[C@H](Cc4ccc(O)cc4)NC(=O)[C@H](CCCCN)NC(=O)[C@H](CCSC)NC(=O)[C@H](CO)NC(=O)[C@H](Cc4cnc[nH]4)NC(=O)[C@H](CCCCN)NC3=O)C(=O)N[C@@H](CCCNC(=N)N)C(=O)N[C@@H](CCCCN)C(=O)N[C@@H]([C@@H](C)O)C(=O)N2)NC(=O)[C@H](CCCNC(=N)N)NC(=O)[C@H](CO)NC(=O)[C@H](CCCCN)NC(=O)[C@@H]2CCCN2C(=O)[C@H]([C@@H](C)CC)NC(=O)[C@H]([C@@H](C)O)NC(=O)[C@H](CC(=O)O)NC1=O` — result for “time to complete degradation”: 6 h (porcine simulated intestinal fluid).
For `CC[C@H](C)[C@H](NC(=O)[C@H](CC(C)C)NC(=O)[C@H](Cc1c[nH]c2ccccc12)NC(=O)[C@H](CCC(N)=O)NC(=O)[C@@H](NC(=O)[C@H](Cc1ccccc1)NC(=O)[C@H](C)NC(=O)[C@H](CCCCNC(=O)COCCOCCNC(=O)COCCOCCNC(=O)CC[C@H](NC(=O)CCCCCCCCCCCCCCCCCCC(=O)O)C(=O)O)NC(=O)[C@H](CCC(N)=O)NC(=O)[C@H](C)NC(=O)[C@@H](NC(=O)[C@H](CCCCN)NC(=O)[C@H](CC(=O)O)NC(=O)[C@H](CC(C)C)NC(=O)C(C)(C)NC(=O)[C@@H](NC(=O)[C@H](CO)NC(=O)[C@H](Cc1ccc(O)cc1)NC(=O)[C@H](CC(=O)O)NC(=O)[C@H](CO)NC(=O)[C@@H](NC(=O)[C@H](Cc1ccccc1)NC(=O)[C@@H](NC(=O)CNC(=O)[C@H](CCC(=O)O)NC(=O)C(C)(C)NC(=O)[C@@H](N)Cc1ccc(O)cc1)[C@@H](C)O)[C@@H](C)O)[C@@H](C)CC)[C@@H](C)CC)C(C)C)C(=O)N[C@@H](C)C(=O)NCC(=O)NCC(=O)N1CCC[C@H]1C(=O)N[C@@H](CO)C(=O)N[C@@H](CO)C(=O)NCC(=O)N[C@@H](C)C(=O)N1CCC[C@H]1C(=O)N1CCC[C@H]1C(=O)N1CCC[C@H]1C(=O)N[C@@H](CO)C(N)=O`, the ALT was 23 ± 2 U/L (DIO male Wistar rats, serum; dose not given, 10 weeks, fasted).
`CCCCCCCCCCCCCCCC(=O)N[C@@H](CCC(=O)NCCCC[C@H](NC(=O)[C@H](CC(=O)O)NC(=O)[C@H](CO)NC(=O)[C@@H](NC(=O)[C@H](Cc1ccccc1)NC(=O)[C@@H](NC(=O)CNC(=O)[C@H](CCC(N)=O)NC(=O)[C@H](C)NC(=O)[C@@H](Cc1ccc(O)cc1)NC(C)=O)[C@@H](C)O)[C@@H](C)O)C(=O)N[C@@H](CO)C(=O)N[C@@H](CCCCN)C(=O)N[C@@H](Cc1ccc(O)cc1)C(=O)N[C@@H](CC(C)C)C(=O)N[C@@H](CC(=O)O)C(=O)N[C@@H](CCC(=O)O)C(=O)N[C@@H](CCCNC(=N)N)C(=O)N[C@@H](C)C(=O)N[C@@H](C)C(=O)N[C@@H](CCC(N)=O)C(=O)N[C@@H](CC(=O)O)C(=O)N[C@@H](Cc1ccccc1)C(=O)N[C@H](C(=O)N[C@@H](CCC(N)=O)C(=O)N[C@@H](Cc1c[nH]c2ccccc12)C(=O)N[C@@H](CC(C)C)C(=O)N[C@@H](CC(C)C)C(=O)N[C@@H](CCC(=O)O)C(=O)NCC(=O)NCC(=O)N1CCC[C@H]1C(=O)N[C@@H](CO)C(=O)N[C@@H](CO)C(=O)NCC(=O)N[C@@H](C)C(=O)N1CCC[C@H]1C(=O)N1CCC[C@H]1C(=O)N1CCC[C@H]1C(=O)N[C@@H](CO)C(N)=O)C(C)C)C(=O)O` has a Cmax of 21.6 ng/mL (male Wistar rat, plasma; subcutaneous, 0.02 mg/kg).
With `CCc1ccccc1NC(=S)N/N=C/c1ccc(O)cc1O` the viability was > 90% (MCF7; 25 µM, 24 h).
